# Published values gathered from unrelated publications.
# Compare with care: the assays were run in different laboratories. Numbers after ± are the reported error.
# Target: Cathepsin B (CTSB, Homo sapiens, UniProt P07858)
Compound,test,conditions,scale,measurement,value
C[C@H](NC(=O)[C@H](CC(=O)NCC(C)(C)C)NC(=O)C(=O)c1c[nH]c2ccccc12)C(=O)NCc1ccc(F)cc1F,"enzyme activity, inhibitor",100 µM,,inhibition,17%
C[C@](C(=O)NC1CCOCC1)(c1cncnc1)N(C(=O)[C@H](F)Cl)c1ccc(OC(F)(F)Cl)cc1,"enzyme activity, inhibitor",10 µM,,remaining activity,107%
CC(C)(C)OC(=O)NC(Cc1cccc(Cl)c1)C(=O)NCC=CS(=O)(=O)c1ccccc1 (centres unmarked),inhibitor,with: Z-Arg-Arg-pNA,,kinact/Ki,580 M⁻¹ s⁻¹
Cc1ccc(CNC(=O)[C@H](CCc2ccccc2)NC(=O)[C@H](CC(=O)NCC(C)(C)C)NC(=O)CCc2cccc(F)c2)cc1,"enzyme activity, inhibitor",100 µM,,inhibition,-13%
O=C(NCCCCc1ccccc1)n1c(=O)oc2cc(-c3ccc(F)cc3)ccc21,"enzyme activity, inhibitor",10 µM,,inhibition,9.9%
COC(=O)c1cc2cc3c(cc2oc1=O)N(CC(=O)NC(Cc1cccc(Cl)c1)C(=O)NCC=CS(=O)(=O)c1ccccc1)CCC3 (centres unmarked),inhibitor,with: Z-Arg-Arg-pNA,,kinact/Ki,881 M⁻¹ s⁻¹
COc1cccc(OC)c1-c1cc(C(=O)NC2(C(=O)O)C3CC4CC(C3)CC2C4)nn1-c1ccc(C(=O)NCCNC(=O)[C@H](CCCCNC(=O)[C@H](CC(C)C)NC(=O)C2OC2C(=O)O)NC(=O)CN2CCN(CC(=O)O)CCN(CC(=O)O)CCN(CC(=O)O)CC2)cc1C(C)C (mixture of isomers),"enzyme activity, inhibitor, fluorescence",pH 6,,kinact/KI,18000 M⁻¹ s⁻¹
COC(=O)CN1CCCc2cc3cc(C(=O)NC(Cc4cccc(Cl)c4)C(=O)NCC=CS(=O)(=O)c4ccccc4)c(=O)oc3cc21 (centres unmarked),inhibitor,"5 µM, 60 min, with: Z-Arg-Arg-pNA",reference: uninhibited control,remaining activity,32%
C=CCNC(=O)[C@H](CCc1ccccc1)NC(=O)[C@H](CC(=O)NCC(C)(C)C)NC(=O)CCc1ccccc1,"enzyme activity, inhibitor",100 µM,,inhibition,-6%
COc1cccc(OC)c1-c1cc(C(=O)NC2(C(=O)O)C3CC4CC(C3)CC2C4)nn1-c1ccc(C(=O)N(C)CCOCCOCCN(C)C(=O)[C@H](CCCCNC(=O)[C@H](CC(C)C)NC(=O)C2OC2C(=O)O)NC(=O)CN2CCN(CC(=O)[O-])CCN(CC(=O)[O-])CCN(CC(=O)[O-])CC2)cc1C(C)C.[Lu+3] (mixture of isomers),"enzyme activity, inhibitor","pH 6.0, 37 °C, with: Z-Arg-Arg-AMC 800 µM",,kinact/KI,32000 ± 7000 M⁻¹ s⁻¹
N=C(N)NCCCC(NC(=O)C(CC(=O)NO)Cc1ccc2ccccc2c1)C(=O)NC(Cc1c[nH]c2ccccc12)C(=O)NC(CCC(=O)O)C(N)=O (centres unmarked),,1 µM,,inhibition,4%
CC(=O)OCC1=C2C(C)=CC(C)=[N+]2[B-](C)(C)n2c(C)cc(C)c21,,,reference: light over dark,kinact/KI ratio,0.83
Cc1ccc(C[C@H](NC(=O)CN2CCCc3cc4cc(C(=O)NCCNC(=O)CCCC[C@@H]5SC[C@@H]6NC(=O)N[C@@H]65)c(=O)oc4cc32)C(=O)NC/C=C/S(=O)(=O)c2ccccc2)cc1,inhibitor,"5 µM, 60 min, with: Z-Arg-Arg-pNA",reference: uninhibited control,remaining activity,38%
Cc1ccc(CNC(=O)C(CCc2ccccc2)NC(=O)C(NC(=O)c2ccc(OCc3ccc(C(C)(C)C)cc3)cc2)C(C)O)cc1 (centres unmarked),"enzyme activity, inhibitor",100 µM,,inhibition,20%

# A few entries again:
Compound,test,conditions,scale,measurement,value
O=C(NCCCCc1ccccc1)n1c(=O)oc2cc(-c3ccc(F)cc3)ccc21,"enzyme activity, inhibitor",10 µM,,inhibition,9.9%
